{"data": "Experimental data gathered from unrelated publications", "note": "Several values in a cell are separate wells, animals, samples, runs or records. ± marks the error that the study gave."}
{"SMILES": "Cc1cc(OC(C)C)ccc1C(=O)C(C)(C)NC(=O)c1sccc1C", "tested on": "basidiomycetes and oomycetes", "assay": "mycelial growth", "quantity": "EC50", "result": "> 50 µg/mL"}
{"SMILES": "O=C1C(Cl)=C(n2cncn2)C(=O)c2ccccc21", "tested on": "Serratia marcescens", "system": "MTCC 4301", "conditions": "10 µg/mL", "quantity": "zone of inhibition", "result": "15 mm"}
{"SMILES": "O=C(Nc1ccc(CNc2ncnc3ccccc23)cc1)c1ccc(Cl)c(F)c1", "tested on": "Plasmodium falciparum", "assay": "nanoluciferase readout", "system": "3D7 Hyp1-Nluc", "conditions": "20 µM, 72 h", "how to read": "baseline: DMSO", "quantity": "parasite growth", "result": "7.37%"}
{"SMILES": "COc1ccccc1C(=O)N1CCC[C@H](C(=O)NCc2nc(-c3ccccc3)cs2)C1", "tested on": "Plasmodium falciparum", "assay": "SYBR Green growth", "system": "asexual blood-stage parasites, 3D7", "conditions": "72 h", "quantity": "EC50", "result": "2900 ± 450 nM"}
{"SMILES": "CC1(C)c2nc(-c3ccc(F)cc3)c(Nc3ccc(F)cc3)n2CCN1C(=O)CN", "tested on": "Plasmodium berghei", "assay": "checkerboard model fit", "system": "HepG2 spheroids", "quantity": "maximum killing rate", "result": "0.117 h⁻¹"}
{"SMILES": "COC(=O)[C@@H](CCSC)NCc1cc2ccccc2nc1SC", "tested on": "Pseudomonas aeruginosa", "conditions": "8 µg/mL, added: pentamidine 100 µM", "how to read": "baseline: control", "quantity": "growth", "result": "97.7%"}
{"SMILES": "O=C(O)CNC(=O)Cc1ccccc1", "system": "ventricular cardiomyocytes, C57BL/6 mouse", "conditions": "dose not given, 0.832 s", "quantity": "sarcomere length", "result": "1.64 µm"}
{"SMILES": "COc1ccc(C[C@H](NC(=O)[C@H](C)NC(=O)CN2CCOCC2)C(=O)N[C@@H](Cc2ccccc2)C(=O)C2(C)CO2)cc1 (stereo in doubt)", "tested on": "Plasmodium berghei", "assay": "parasitaemia, 4-day suppression test", "system": "ANKA, infected BALB/c mice", "conditions": "intraperitoneal", "quantity": "ED50", "result": "6.52 mg/kg"}
{"SMILES": "N=C(N)c1ccc(OCc2cc(Br)cc(COc3ccc(C(=N)N)cc3)c2)cc1", "tested on": "Escherichia coli", "assay": "checkerboard", "system": "BW25113", "conditions": "concentration not given, lowest-FICI combination, added: erythromycin", "quantity": "MIC of compound in combination", "result": "6.25 µg/mL"}
{"SMILES": "C[C@H]1[C@H](OC(=O)CCC(=O)O)O[C@@H]2O[C@@]3(C)CC[C@H]4[C@H](C)CC[C@@H]1[C@@]24OO3", "tested on": "Plasmodium berghei", "system": "NK65/GFP, mouse", "conditions": "subcutaneous, 22 µmol/kg daily for four days", "quantity": "cure rate", "result": "50%"}
{"SMILES": "NC(=O)N1c2ccccc2C=Cc2ccccc21", "tested on": "Drosophila melanogaster", "assay": "fluorescence", "conditions": "liquid food, 40 µg/mL, first instar larvae", "how to read": "baseline: solvent", "quantity": "fluorescein ingestion", "result": "14.9%"}
{"SMILES": "CC1(C)S[C@@H]2[C@H](NC(=O)[C@H](N)c3ccccc3)C(=O)N2[C@H]1C(=O)O", "tested on": "Pseudomonas aeruginosa", "system": "clinical isolate RKI-No_578/15", "quantity": "MIC", "result": "> 16 µg/mL"}
{"SMILES": "COc1ccc(CNc2nc(-c3ccc(C(=O)O)nc3)nc3sc4c(c23)CCCC4)cc1Cl", "tested on": "Plasmodium falciparum", "assay": "nanoluciferase readout", "system": "3D7 Hyp1-Nluc", "conditions": "2 µM, 72 h", "how to read": "baseline: DMSO", "quantity": "parasite growth", "result": "25.3%"}
{"SMILES": "O=C(NCc1nc(-c2ccccc2)cs1)[C@H]1CCCN(C(=O)COCC2CC2)C1", "tested on": "Plasmodium falciparum", "assay": "SYBR Green growth", "system": "asexual blood-stage parasites, 3D7", "conditions": "72 h", "quantity": "EC50", "result": "72 ± 1 nM"}
{"SMILES": "CN1CCC[C@@H]1CCO[C@](C)(c1ccccc1)c1ccc(Cl)cc1", "tested on": "Drosophila melanogaster", "assay": "fluorescence", "conditions": "liquid food, 40 µg/mL, first instar larvae", "how to read": "baseline: solvent", "quantity": "fluorescein ingestion", "result": "-16.9%"}
{"SMILES": "CC(C)n1ncc2c(C(=O)NCC3(C)CNC3)cc(C3CC3)nc21", "tested on": "coxsackievirus A16", "system": "RD", "conditions": "0.015 µM", "quantity": "cell protection", "result": "-0.665% and 0.665%"}
{"SMILES": "N[C@H](CCSSCC[C@@H](N)C(=O)O)C(=O)O (racemic)", "assay": "binding, MIDAS equilibrium dialysis LC-MS", "system": "A2AR-BRIL thermostabilized", "conditions": "concentration not given", "how to read": "baseline: no-protein control", "quantity": "log2 fold change", "result": -0.0856}
{"SMILES": "N[C@@H](CC(=O)O)C(=O)O", "tested on": "Drosophila melanogaster", "assay": "fluorescence", "conditions": "liquid food, 40 µg/mL, first instar larvae", "how to read": "baseline: solvent", "quantity": "fluorescein ingestion", "result": "12.6%"}
{"SMILES": "CC/N=C(\\c1ccc(OC)c(OC)c1)N1CCCc2cc(C3=NNC(=O)SC3C)ccc21 (stereo not shown)", "tested on": "Plasmodium falciparum", "assay": "nanoluciferase readout", "system": "3D7 Hyp1-Nluc", "conditions": "20 µM, 72 h", "how to read": "baseline: DMSO", "quantity": "parasite growth", "result": "6.48%"}
{"SMILES": "Nc1ncnc2c1ncn2[C@@H]1O[C@H](COP(=O)(O)O)[C@@H](O)[C@H]1O", "assay": "binding, MIDAS equilibrium dialysis LC-MS", "system": "A2AR-BRIL thermostabilized", "conditions": "concentration not given", "how to read": "baseline: no-protein control", "quantity": "log2 fold change", "result": -0.124}
{"SMILES": "CN[C@H](CC(C)C)C(=O)N[C@H]1C(=O)N[C@@H](CC(N)=O)C(=O)N[C@H]2C(=O)N[C@H]3C(=O)N[C@H](C(=O)N[C@H](C(=O)O)c4cc(O)cc(O)c4-c4cc3ccc4O)[C@H](O)c3ccc(c(Cl)c3)Oc3cc2cc(c3O[C@@H]2O[C@H](CO)[C@@H](O)[C@H](O)[C@H]2O[C@H]2C[C@](C)(N)[C@H](O)[C@H](C)O2)Oc2ccc(cc2Cl)[C@H]1O", "tested on": "Streptococcus pneumoniae", "system": "PRSP", "conditions": "10 isolates", "quantity": "MIC50", "result": "0.25 µg/mL"}
{"SMILES": "CC(=Nc1ccc(N=Cc2cnccn2)cc1)N(C)C", "tested on": "Necator americanus", "system": "hamster (Mesocricetus auratus), infected", "conditions": "oral, 50 mg/kg single dose, 1 h", "quantity": "anthelmintic rate", "result": "18.9 ± 12.2%"}
